Results collected from several papers.
± marks the error that the study gave.

Nc1ncnc2c1nc(-n1nnc3c1CCC1C(CO)C1CC3)n2C1CC(O)C(CO)O1 (mixture of isomers) — fractional contribution τ3 (fluorescence lifetime; methanol): 0.19%
C#CCOc1ccc(/C=C2\SC(=O)N(CC(=O)NCc3ccccc3)C2=O)cc1 — Kirkwood-Buff integral G2,3 (inverse Kirkwood-Buff integrals; binary solvent mixture; 298.15 K, mole fraction x1 1.00): -325 cm³/mol
CCC(=O)N[C@@H](C)C(=O)OCC(=O)N[C@@H](C)C(=O)O — depolymerization half-life (water; pH 8, 25 °C): 45 h
COc1cc(OC)cc(C2=C3C(C)=C(I)C(C)=[N+]3[B-](F)(F)n3c(/C=C/c4c[nH]c5ccc([N+](=O)[O-])cc45)c(I)c(C)c32)c1 — Stokes shift (DMSO): 716 cm⁻¹
CC[C@@H](C)N([11CH3])C(=O)c1nc(-c2ccccc2)c2ccccc2n1 — time to 50% parent radioligand (male rhesus monkey, plasma; intravenous, baseline): 26 min
COc1cc(NC(C)=O)c2c(c1O)-c1c(OC)c(OC)cc3c1C(C2)N(C)CC3 (stereo not drawn) — remaining compound (rat heart homogenate; 50 µg/mL, time not given, three freeze-thaw cycles): 108 ± 2.9%
COC(=O)c1ccc(CCc2cc3cc4nc(c(OC)c5[nH]c(cc6nc(cc2[nH]3)CC6(C)C)cc5CCCNC(=O)OC(C)(C)C)C(=O)C4(C)C)cc1 — Qy emission maximum (DMF; room temperature): 686 nm
CC(C)c1cnc(-c2cc(Cl)ccc2F)cc1Nc1ccncc1C(=O)NC(CO)CO — patients with treatment-related adverse event (monotherapy, item: blood alkaline phosphatase increased; human patients; oral, dose not given, grade 2, phase I A): 0%
CC=C1C(OC2OC(CO)C(O)C(O)C2O)OC=C(C(=O)OC)C1CC(=O)OCC1OC(OCCc2ccc(O)cc2)C(O)C(O)C1O (stereo not drawn) — half-life (pseudo-germfree tumour-bearing Balb/c mice, plasma; oral, 109.2 mg/kg): 65.5 min
NC[C@@H](C(=O)Nc1ccc(-c2cn[nH]c2)cc1)c1ccccc1 — iris score (OECD 405 eye irritation; New Zealand White rabbit, eye; topical, 0.1%, 56 h (day 3), scale 0 to 2; direction not given): 0
CC(C)(C)CC(C)(C)Nc1c(-c2ccc3c(c2)OCO3)nc2cnccn12 — MDA level (Wistar rat, liver; 1000 mg/kg; relative to: control): increased
Nc1nccc(-c2cn(C3CC3)c3ccccc23)n1 — share of radioactivity (LC-RAM/HRMS; human male, plasma; oral, 110 mg, 6 h; relative to: total radioactivity): 4.08%
Cc1ccc(-c2ccc(-c3cc4sccc4o3)cn2)nc1 — fluorescence quantum yield (acetonitrile; zinc-free ligand, together with: quinine bisulfate reference): 0.6
CCOC(=O)CCC(=O)Oc1ccc(/C=C/C(=O)/C=C(O)/C=C/c2ccc(OC(=O)CCC(=O)OCC)c(OC)c2)cc1OC — hydrolysis rate constant ratio (dog plasma; 1.5 µM; relative to: plasma over buffer pH 7.4): 60
CCCCCCCCCCCCCCCC(=O)N[C@@H](CCCCN)C(=O)N[C@@H](CCCCN)C(=O)N[C@@H](CO)C(=O)N[C@@H](CCCNC(=N)N)C(=O)N[C@@H](C)C(=O)N[C@@H](CC(C)C)C(=O)N[C@@H](Cc1ccccc1)C(N)=O — activated partial thromboplastin time (cynomolgus monkey, female; 10 mg/kg, day 1): 27.3 ± 2.3 s
[11CH3]c1ccc2nc(C3CCC3)n(-c3ccc4[nH]ncc4c3)c2n1 — absorbed radiation dose (human female, adrenals): 4.1 µSv/MBq
O=C([O-])CN1CCN(CC(=O)[O-])CCN(CC(=O)NCC2CCC(C(=O)NC(Cc3ccc4ccccc4c3)C(=O)NCCCCC(NC(=O)NC(CCC(=O)O)C(=O)O)C(=O)O)CC2)CCN(CC(=O)[O-])CC1.[44Sc+3] (stereo not drawn) — intact complex (transchelation stability; 24 h, 37 °C, together with: EDTA 10 mM): 95.9 ± 1.2%
CCCC[C@H](NC(=O)[C@H](CC(C)C)N(C)C(=O)CNC(=O)[C@@H](NC(=O)[C@H](Cc1ccccc1)NC(=O)[C@H](CCCCN)NC(=O)[C@@H](N)CC(=O)O)C(C)C)C(N)=O — mean arterial pressure (anaesthetised minipig; sublingual, 5 mg/kg): no effect
CC/C=C\C/C=C\C/C=C\C/C=C\C/C=C\CCCCOC(CC)C(=O)O (stereo not drawn) — radioactivity concentration ([14C] label; male Wistar rat, subcutaneous fat; oral, 100 mg/kg, 8 h): 15.4 µg equiv/g
CCCC(CCC)NC(=O)c1ccc(O)c(O)c1 — peak area (LC-MS extracted ion chromatogram; Sprague-Dawley rat, male and female, pooled plasma; oral, 200 mg/kg, 1 h): 653000 cps
CC(=O)N[C@H](CC(=O)O)C(=O)N[C@H](Cc1c[nH]c2ccccc12)C(=O)N[C@H](Cc1ccccc1)C(=O)N[C@H](CCCCN)C(=O)N[C@H](C)C(=O)N[C@H](Cc1ccccc1)C(=O)N[C@H](Cc1ccc(O)cc1)C(=O)N[C@H](CC(=O)O)C(=O)N[C@H](CCCCN)C(=O)N[C@@H](C(=O)N[C@H](C)C(=O)N[C@H](CCC(=O)O)C(=O)N[C@H](CCCCN)C(=O)N[C@H](Cc1ccccc1)C(=O)N[C@H](CCCCN)C(=O)N[C@H](CCC(=O)O)C(=O)N[C@H](C)C(=O)N[C@H](Cc1ccccc1)C(N)=O)C(C)C — Cmax (statin-treated high-risk CHD women, plasma; oral, 500 mg daily, day 1, 0 to 2 h, mean, outlier excluded): 67.3 ng/mL
C[C@H]1CO[C@@H]2Cn3cc(C(=O)NCc4ccc(F)cc4F)c(=O)c(O[C@@H]4O[C@H](C(=O)O)[C@@H](O)[C@H](O)[C@H]4O)c3C(=O)N12 — participants with detectable plasma drug (humans UGT1A1 wild type; oral, 30 mg, 1 weeks after last dose): 60%
CC(C)(C)NCC(SS(=O)(=O)O)c1ccccc1 (stereo not drawn) — Vss (Swiss Webster CFW mouse, female, plasma; intravenous, 15 mg/kg, from 0 h to last): 0.693 L/kg
CCCCCCCCCCCCCCOc1c(O)cc(C(=O)O[C@@H]2Cc3c(O)cc(O)cc3O[C@@H]2c2cc(O)c(O)c(O)c2)cc1O — degradation (UV-Vis; PBS; 0.02 mg/mL, 24 h, pH 7.4): 27.8 ± 1.43%
Cc1ccc(OCC(=O)O)cc1 — t1/2 (Sprague-Dawley rat Crl:CD(SD), male, plasma; oral, 10 mg/kg/day of parent drug, day 90, 90-day repeated dosing): 253 min
CC(C)C[C@@H](NC(=O)[C@H](NC(=O)[C@H]1CCCN1)[C@H](C)O)C(=O)N[C@H](Cc1c[nH]cn1)C(=O)N[C@@H](C(=O)N[C@H](Cc1c[nH]cn1)C(=O)N[C@H](CC(N)=O)C(=O)N[C@H](CCCNC(=N)N)C(=O)N[C@H](CCCNC(=N)N)C(=O)N[C@H](CCCNC(=N)N)C(=O)N[C@H](CCCNC(=N)N)C(=O)N[C@H](CCCNC(=N)N)C(N)=O)[C@H](C)O — Vd (beagle dog, plasma; intravenous, 3 mg/kg, single dose): 0.659 L/kg
N=C(N)NCCC[C@@H]1NC(=O)[C@H](Cc2c[nH]c3ccccc23)NC(=O)[C@@H](CC2CCCCC2)NC(=O)[C@@H]2CCCN2C(=O)[C@@H](NC(=O)CCc2ccccc2)CCCNC1=O — apparent distributional clearance (C57BL/6J mice, spinal cord; intraperitoneal, 1 mg/kg, two-compartment model): 2.59 ng/(min·ng/g)
Cn1c(=O)oc2ccc(-c3ccc(CC(C#N)NC(=O)C4CNCCCO4)c(F)c3)cc21 (stereo not drawn) — treatment-emergent adverse event incidence (item: blood triglycerides increased; human volunteers; oral): 37%
CCCC(CCC)NC(=O)c1ccc(OS(=O)(=O)O)c(OC)c1 — peak area (LC-MS extracted ion chromatogram; Sprague-Dawley rat, male and female, pooled plasma; oral, 200 mg/kg, 1 h): 1.14e+06 cps
CCCCCCCC(=O)OC[C@H](NC(=O)[C@H](CO)NC(=O)CN)C(=O)N[C@@H](Cc1ccccc1)C(=O)N[C@@H](CC(C)C)C(=O)N[C@@H](CO)C(=O)N1CCC[C@H]1C(=O)N[C@@H](CCC(=O)O)C(=O)N[C@@H](Cc1cnc[nH]1)C(=O)N[C@@H](CCC(N)=O)C(=O)N[C@@H](CCCNC(=N)N)C(=O)N[C@H](C(=O)N[C@@H](CCC(N)=O)C(=O)N[C@@H](CCC(N)=O)C(=O)N[C@@H](CCCNC(=N)N)C(=O)N[C@@H](CCCCN)C(=O)N[C@@H](CCC(=O)O)C(=O)N[C@@H](CO)C(=O)N[C@@H](CCCCN)C(=O)N[C@@H](CCCCN)C(=O)N1CCC[C@H]1C(=O)N1CCC[C@H]1C(=O)N[C@@H](C)C(=O)N[C@@H](CCCCN)C(=O)N[C@@H](CC(C)C)C(=O)N[C@@H](CCC(N)=O)C(=O)N1CCC[C@H]1C(=O)N[C@@H](CCCNC(=N)N)C(=O)O)C(C)C — heart rate (chronic HFrEF patients; intravenous infusion, 0.1 µg/kg/min, end of 120 min infusion): 67 ± 11 bpm

For quick reference, copied from above:
Cc1ccc(OCC(=O)O)cc1 — t1/2 (Sprague-Dawley rat Crl:CD(SD), male, plasma; oral, 10 mg/kg/day of parent drug, day 90, 90-day repeated dosing): 253 min
CC(C)C[C@@H](NC(=O)[C@H](NC(=O)[C@H]1CCCN1)[C@H](C)O)C(=O)N[C@H](Cc1c[nH]cn1)C(=O)N[C@@H](C(=O)N[C@H](Cc1c[nH]cn1)C(=O)N[C@H](CC(N)=O)C(=O)N[C@H](CCCNC(=N)N)C(=O)N[C@H](CCCNC(=N)N)C(=O)N[C@H](CCCNC(=N)N)C(=O)N[C@H](CCCNC(=N)N)C(=O)N[C@H](CCCNC(=N)N)C(N)=O)[C@H](C)O — Vd (beagle dog, plasma; intravenous, 3 mg/kg, single dose): 0.659 L/kg
N=C(N)NCCC[C@@H]1NC(=O)[C@H](Cc2c[nH]c3ccccc23)NC(=O)[C@@H](CC2CCCCC2)NC(=O)[C@@H]2CCCN2C(=O)[C@@H](NC(=O)CCc2ccccc2)CCCNC1=O — apparent distributional clearance (C57BL/6J mice, spinal cord; intraperitoneal, 1 mg/kg, two-compartment model): 2.59 ng/(min·ng/g)
Cn1c(=O)oc2ccc(-c3ccc(CC(C#N)NC(=O)C4CNCCCO4)c(F)c3)cc21 (stereo not drawn) — treatment-emergent adverse event incidence (item: blood triglycerides increased; human volunteers; oral): 37%
